Measured values pooled from the literature.
Compare with care: the assays were run in different laboratories. ± marks the error that the study gave.

pinnatoxin A
IC50 (nicotinic acetylcholine receptor (Torpedo marmorata); binding; methanol standard, added: biotin-α-bungarotoxin 80 nM): 75.8 ± 7.09 nM

C[C@H](NP(=O)(Nc1ccn([C@H]2CS[C@@H](COP(=O)(N[C@@H](C)C(=O)OCc3ccccc3)N[C@@H](C)C(=O)OCc3ccccc3)O2)c(=O)n1)N[C@@H](C)C(=O)OCc1ccccc1)C(=O)OCc1ccccc1
IC50 (HeLa; cell proliferation; 3 d): ≥ 250000 nM

gymnodimine A
IC50 (nicotinic acetylcholine receptor (Torpedo marmorata); binding; methanol standard, added: biotin-α-bungarotoxin 80 nM): 74.2 ± 10.8 nM

Cc1cc(/C=C/C#N)cc(C)c1Oc1nc(NC2CCN(Cc3ccc(P(C)(C)=O)cc3)CC2)nc2ccsc12
selectivity index (Human immunodeficiency virus 1; MT-4, wild type IIIB; relative to: CC50 over EC50): 66900

20-methyl spirolide G
Ki (nicotinic acetylcholine receptor (Torpedo marmorata); binding; added: biotin-α-bungarotoxin 80 nM): 6.63 ± 1.09 nM

CCCN1CCC=C(c2cc(-c3ccc(C)cc3)no2)C1
dendritic spine density (hippocampal neurons; concentration not given, added: RML PrPSc): 0.77 ± 0.01 spines/µm

C[C@H](NP(=O)(Nc1ccn([C@H]2CS[C@@H](CO)O2)c(=O)n1)N[C@@H](C)C(=O)OCc1ccccc1)C(=O)OCc1ccccc1
IC50 (COLO 320; cell proliferation; 72 h): > 250000 nM

Nc1ccc([As]2SCCS2)cc1
IC50 (DLD-1; cell viability, MTS): 6900 ± 1810 nM

AEOL 10150
cystine level (HPLC-electrochemical; rat, status epilepticus model, plasma; sc, 7 mg/kg every 4 h, 24 h, dosing from 15 min after SE): decreased

CN1CC[C@]23c4c5ccc(O)c4O[C@H]2[C@@H](O)C=C[C@H]3[C@H]1C5
ED50 (antinociception, hot plate at 52 °C; C57BL/6J male mice; subcutaneous): 10.2 mg/kg

Pillar[6]MaxQ
Kd (host-guest binding, isothermal titration calorimetry; 20 mM sodium phosphate buffer; pH 7.4, added: fentanyl): 9.8 nM

13-desmethyl spirolide C
Hill slope (nicotinic acetylcholine receptor (Torpedo marmorata); binding; added: biotin-α-bungarotoxin): 1.09 ± 0.14

C#CC(=O)Nc1ccc([As]2SCCS2)cc1
IC50 (HCT-116; cell viability, MTS): 530 ± 200 nM

pinnatoxin G
Hill slope (nicotinic acetylcholine receptor (Torpedo marmorata); binding; added: biotin-α-bungarotoxin): 0.65 ± 0.1

CSCC[C@@H]1NC(=O)[C@H](CC(C)C)NC(=O)[C@H](CCCNC(=N)N)NC(=O)[C@H](CO)NC(=O)[C@@H]2CSSC[C@@H]3NC(=O)[C@H](CO)NC(=O)CNC(=O)[C@H]([C@@H](C)O)NC(=O)[C@H](CSSC[C@H](N)C(=O)N[C@@H](CCCCN)C(=O)NCC(=O)N[C@@H](CCCCN)C(=O)NCC(=O)N[C@@H](C)C(=O)N[C@@H](CCCCN)C(=O)N2)NC(=O)[C@H](CSSC[C@@H](C(N)=O)NC(=O)[C@H](CCCCN)NC(=O)CNC(=O)[C@H](CO)NC(=O)[C@H](CCCNC(=N)N)NC3=O)NC(=O)[C@H](CC(=O)O)NC(=O)[C@H](Cc2ccc(O)cc2)NC1=O
MIC (Staphylococcus aureus): > 500 µM

13,19-didesmethyl spirolide C
IC50 (nicotinic acetylcholine receptor (Torpedo marmorata); binding; methanol standard, added: biotin-α-bungarotoxin 80 nM): 3.1 ± 1.23 nM

NC12CC3CC(CC(C3)C1)C2
EC50 (Influenza A virus; viral replication, plaque size reduction; MDCK, A/Swine/Minnesota/34-0818/2011 (H1N2)): < 1000 nM

COc1cccc(C(=O)N2CCN(C(=O)COc3cccc(C)c3)CC2)c1OC
mRNA level increase (PC-3; qPCR, refers to: INK4A/ARF; 250 µM, 12 h; relative to: DMSO): ~25%

Nc1ncnc2c1ncn2[C@@H]1O[C@H](COP(=O)(O)OP(=O)(O)OP(=O)(O)O)[C@@H](O)[C@H]1O
kcat (nicotinamide mononucleotide adenylyltransferase R133A, His-tagged; substrate): 26 min⁻¹
